Measurements of several laboratories.
Every numbered part comes from another study and shows a few of its results, in no order. Several values in a cell are separate wells, animals, samples, runs or records.
Chain of UniProt P07949 (whole entry, unmodified, looked up): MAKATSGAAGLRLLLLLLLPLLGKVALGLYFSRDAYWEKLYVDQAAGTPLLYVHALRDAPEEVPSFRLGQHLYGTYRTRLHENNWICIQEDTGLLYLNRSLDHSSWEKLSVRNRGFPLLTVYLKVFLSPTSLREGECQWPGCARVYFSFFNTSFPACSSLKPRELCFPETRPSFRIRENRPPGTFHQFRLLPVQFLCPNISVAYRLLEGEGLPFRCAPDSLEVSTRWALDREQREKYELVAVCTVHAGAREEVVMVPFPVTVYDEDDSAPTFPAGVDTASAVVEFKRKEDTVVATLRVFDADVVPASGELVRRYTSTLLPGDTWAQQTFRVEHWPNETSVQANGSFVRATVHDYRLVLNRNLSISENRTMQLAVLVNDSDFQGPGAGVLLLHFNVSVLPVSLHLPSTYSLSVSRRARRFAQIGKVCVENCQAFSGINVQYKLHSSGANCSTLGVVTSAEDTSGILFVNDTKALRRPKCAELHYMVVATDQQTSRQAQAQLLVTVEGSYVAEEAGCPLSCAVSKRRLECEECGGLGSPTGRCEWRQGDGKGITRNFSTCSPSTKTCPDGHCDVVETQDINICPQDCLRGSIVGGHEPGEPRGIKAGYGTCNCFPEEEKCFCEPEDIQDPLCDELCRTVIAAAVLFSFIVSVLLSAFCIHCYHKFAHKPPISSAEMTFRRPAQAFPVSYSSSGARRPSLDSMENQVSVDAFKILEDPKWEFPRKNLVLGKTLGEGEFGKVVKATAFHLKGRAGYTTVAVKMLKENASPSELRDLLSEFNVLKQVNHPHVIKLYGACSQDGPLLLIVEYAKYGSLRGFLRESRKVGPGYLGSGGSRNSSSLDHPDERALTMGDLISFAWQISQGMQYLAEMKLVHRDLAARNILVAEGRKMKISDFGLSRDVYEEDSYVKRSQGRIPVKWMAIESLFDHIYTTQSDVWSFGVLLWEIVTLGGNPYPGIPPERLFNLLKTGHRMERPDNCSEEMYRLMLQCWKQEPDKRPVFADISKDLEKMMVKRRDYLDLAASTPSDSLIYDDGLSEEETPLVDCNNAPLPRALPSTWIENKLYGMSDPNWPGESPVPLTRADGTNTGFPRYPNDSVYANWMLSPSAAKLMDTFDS
Chain of UniProt P32298 (whole entry, looked up): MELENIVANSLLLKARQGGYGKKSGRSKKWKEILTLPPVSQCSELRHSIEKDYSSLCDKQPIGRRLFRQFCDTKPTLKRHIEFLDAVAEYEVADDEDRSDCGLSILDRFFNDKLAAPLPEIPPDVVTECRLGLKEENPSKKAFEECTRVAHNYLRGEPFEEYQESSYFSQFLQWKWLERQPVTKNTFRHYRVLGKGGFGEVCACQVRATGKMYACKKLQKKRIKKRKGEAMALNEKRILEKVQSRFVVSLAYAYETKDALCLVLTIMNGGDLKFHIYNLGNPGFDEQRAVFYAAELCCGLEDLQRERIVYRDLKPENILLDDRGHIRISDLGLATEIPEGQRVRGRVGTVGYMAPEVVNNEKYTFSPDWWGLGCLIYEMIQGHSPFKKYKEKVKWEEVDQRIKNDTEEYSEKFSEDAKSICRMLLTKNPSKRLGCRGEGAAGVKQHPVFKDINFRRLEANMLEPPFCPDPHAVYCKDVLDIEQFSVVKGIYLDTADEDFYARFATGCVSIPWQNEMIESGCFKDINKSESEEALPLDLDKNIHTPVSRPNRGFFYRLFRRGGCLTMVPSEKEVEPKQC
Chain of UniProt Q9Y2H9 (whole entry, looked up): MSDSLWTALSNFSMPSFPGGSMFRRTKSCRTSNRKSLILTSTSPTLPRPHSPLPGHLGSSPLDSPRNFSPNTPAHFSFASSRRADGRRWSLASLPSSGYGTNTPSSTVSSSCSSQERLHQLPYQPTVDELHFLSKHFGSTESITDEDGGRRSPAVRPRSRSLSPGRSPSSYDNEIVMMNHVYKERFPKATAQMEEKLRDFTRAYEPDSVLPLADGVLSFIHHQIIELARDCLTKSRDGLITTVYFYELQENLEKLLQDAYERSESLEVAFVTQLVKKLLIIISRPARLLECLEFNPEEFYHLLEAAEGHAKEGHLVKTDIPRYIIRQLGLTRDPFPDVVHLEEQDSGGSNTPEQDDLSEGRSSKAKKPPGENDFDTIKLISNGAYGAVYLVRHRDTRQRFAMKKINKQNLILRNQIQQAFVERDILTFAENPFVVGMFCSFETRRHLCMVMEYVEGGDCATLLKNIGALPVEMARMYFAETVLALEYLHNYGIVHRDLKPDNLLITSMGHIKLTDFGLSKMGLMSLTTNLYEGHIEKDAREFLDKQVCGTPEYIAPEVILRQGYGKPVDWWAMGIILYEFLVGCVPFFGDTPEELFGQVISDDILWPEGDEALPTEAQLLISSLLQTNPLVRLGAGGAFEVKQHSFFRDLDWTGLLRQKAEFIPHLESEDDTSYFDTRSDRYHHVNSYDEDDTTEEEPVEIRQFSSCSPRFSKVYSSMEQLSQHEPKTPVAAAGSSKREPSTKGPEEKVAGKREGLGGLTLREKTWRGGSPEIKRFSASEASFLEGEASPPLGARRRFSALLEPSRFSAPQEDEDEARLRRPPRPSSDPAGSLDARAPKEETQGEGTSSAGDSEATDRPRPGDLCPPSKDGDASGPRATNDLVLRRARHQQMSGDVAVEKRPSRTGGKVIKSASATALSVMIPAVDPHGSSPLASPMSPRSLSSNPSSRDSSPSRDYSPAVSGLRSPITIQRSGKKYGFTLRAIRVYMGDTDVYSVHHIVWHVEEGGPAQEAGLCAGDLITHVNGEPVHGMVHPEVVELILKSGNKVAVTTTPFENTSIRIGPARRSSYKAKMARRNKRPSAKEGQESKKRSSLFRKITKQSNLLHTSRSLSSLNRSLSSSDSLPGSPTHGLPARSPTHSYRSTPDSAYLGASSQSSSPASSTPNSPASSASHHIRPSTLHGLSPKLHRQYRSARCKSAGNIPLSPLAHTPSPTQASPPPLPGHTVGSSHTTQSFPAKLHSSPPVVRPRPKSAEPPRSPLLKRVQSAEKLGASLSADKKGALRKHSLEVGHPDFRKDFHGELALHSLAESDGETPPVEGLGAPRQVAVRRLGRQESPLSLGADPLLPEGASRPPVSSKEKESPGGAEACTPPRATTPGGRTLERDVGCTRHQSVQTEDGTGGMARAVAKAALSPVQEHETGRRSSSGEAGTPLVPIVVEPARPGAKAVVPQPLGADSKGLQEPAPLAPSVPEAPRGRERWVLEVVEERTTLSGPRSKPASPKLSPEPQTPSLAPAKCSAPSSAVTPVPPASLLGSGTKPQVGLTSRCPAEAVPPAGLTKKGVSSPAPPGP
Chain of UniProt P06239 (whole entry, looked up): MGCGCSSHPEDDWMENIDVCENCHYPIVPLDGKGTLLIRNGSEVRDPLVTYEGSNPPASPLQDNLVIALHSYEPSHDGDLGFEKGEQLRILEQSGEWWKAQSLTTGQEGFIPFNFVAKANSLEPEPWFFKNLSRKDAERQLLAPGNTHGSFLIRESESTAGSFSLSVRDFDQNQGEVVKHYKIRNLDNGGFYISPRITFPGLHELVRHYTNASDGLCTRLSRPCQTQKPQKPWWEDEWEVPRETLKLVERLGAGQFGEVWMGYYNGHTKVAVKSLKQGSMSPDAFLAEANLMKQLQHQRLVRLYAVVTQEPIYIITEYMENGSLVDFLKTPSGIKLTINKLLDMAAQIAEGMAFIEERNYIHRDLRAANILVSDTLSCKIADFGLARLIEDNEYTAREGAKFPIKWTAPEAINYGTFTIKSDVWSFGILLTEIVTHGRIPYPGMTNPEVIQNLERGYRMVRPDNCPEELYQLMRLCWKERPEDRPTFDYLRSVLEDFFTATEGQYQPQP
Chain of UniProt Q04771 (whole entry, looked up): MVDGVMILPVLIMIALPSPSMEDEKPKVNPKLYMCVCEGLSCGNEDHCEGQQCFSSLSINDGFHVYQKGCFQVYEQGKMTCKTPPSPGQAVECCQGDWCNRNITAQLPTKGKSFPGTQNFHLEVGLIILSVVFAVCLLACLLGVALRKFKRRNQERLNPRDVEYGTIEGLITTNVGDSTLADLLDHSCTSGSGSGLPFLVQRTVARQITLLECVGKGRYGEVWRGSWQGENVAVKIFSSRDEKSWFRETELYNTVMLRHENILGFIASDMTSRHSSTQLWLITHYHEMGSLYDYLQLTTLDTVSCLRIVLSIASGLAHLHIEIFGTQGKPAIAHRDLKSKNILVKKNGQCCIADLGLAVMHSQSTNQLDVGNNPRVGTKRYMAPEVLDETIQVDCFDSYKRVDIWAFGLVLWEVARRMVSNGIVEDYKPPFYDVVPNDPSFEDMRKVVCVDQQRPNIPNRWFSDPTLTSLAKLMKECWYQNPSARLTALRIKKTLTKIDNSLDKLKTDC

Block 1 — method: Incucyte 3D growth; tested at: 30 µM; direction: higher = more growth
Structure (SMILES): CC(C)(C(=O)O)[C@H](NC(=O)Cc1cccc(I)c1)c1ccc2oc(=O)[nH]c2c1
| cell line | conditions | spheroid area |
| --- | --- | --- |
| A375 | 6.52 h | 9.8e+06 a.u. and 9.79e+06 a.u. and 1.07e+07 a.u. and 9.38e+06 a.u. and 7.95e+06 a.u. and 1.02e+07 a.u. |
| MEL-JUSO | 186.52 h | 1.61e+07 a.u. and 1.53e+07 a.u. and 2.12e+07 a.u. and 2.03e+07 a.u. and 1.39e+07 a.u. and 1.75e+07 a.u. |
| A375 | 312.52 h | 2e+08 a.u. and 1.75e+08 a.u. and 1.7e+08 a.u. and 1.78e+08 a.u. and 1.76e+08 a.u. and 1.95e+08 a.u. |
| A375 | 228 h | 1.28e+08 a.u. and 1.14e+08 a.u. and 1.33e+08 a.u. and 1.31e+08 a.u. and 1.52e+08 a.u. and 1.29e+08 a.u. |
| MEL-JUSO | 396.52 h | 4.05e+07 a.u. and 3.31e+07 a.u. and 3.48e+07 a.u. and 4.09e+07 a.u. and 7.09e+07 a.u. |

Block 2 — read-out: enzyme activity; mode: inhibitor; tested at: 0.5 µM; relative to: control
Target: Serine/threonine-protein kinase haspin (HASPIN, Homo sapiens, UniProt Q8TF76)
Chain of UniProt Q8TF76 (whole entry, looked up): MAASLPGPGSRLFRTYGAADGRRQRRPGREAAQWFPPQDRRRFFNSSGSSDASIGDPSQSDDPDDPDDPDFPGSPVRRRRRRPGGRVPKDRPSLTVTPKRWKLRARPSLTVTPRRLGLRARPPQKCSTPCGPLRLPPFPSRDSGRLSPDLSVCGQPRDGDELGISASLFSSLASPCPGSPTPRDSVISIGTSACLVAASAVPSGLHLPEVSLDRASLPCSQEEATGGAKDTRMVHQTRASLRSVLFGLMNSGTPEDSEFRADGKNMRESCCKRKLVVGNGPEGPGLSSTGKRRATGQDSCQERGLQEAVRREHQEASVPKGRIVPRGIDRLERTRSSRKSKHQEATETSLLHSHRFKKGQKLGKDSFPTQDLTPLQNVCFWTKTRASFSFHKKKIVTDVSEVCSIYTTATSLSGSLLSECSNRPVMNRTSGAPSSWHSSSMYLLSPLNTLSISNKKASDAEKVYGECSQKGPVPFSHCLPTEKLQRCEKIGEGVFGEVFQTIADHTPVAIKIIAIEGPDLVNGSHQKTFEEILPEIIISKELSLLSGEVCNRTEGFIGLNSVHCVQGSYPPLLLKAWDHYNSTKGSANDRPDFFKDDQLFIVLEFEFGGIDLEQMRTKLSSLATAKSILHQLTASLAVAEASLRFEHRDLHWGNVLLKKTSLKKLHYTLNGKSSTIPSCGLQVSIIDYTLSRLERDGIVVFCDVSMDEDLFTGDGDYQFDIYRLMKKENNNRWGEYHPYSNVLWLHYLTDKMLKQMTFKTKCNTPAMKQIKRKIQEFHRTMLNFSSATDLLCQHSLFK
| Compound | remaining activity |
| --- | --- |
| CN1CCN(c2ccc3nc(-c4c(N)c5c(F)cccc5[nH]c4=O)[nH]c3c2)CC1 | 75% |
| N#Cc1cnc2cnc(NCc3cccnc3)cc2c1Nc1ccc(F)c(Cl)c1 | 82.5% |
| Cc1cc(Nc2cc(N3CCN(C)CC3)nc(Sc3ccc(NC(=O)C4CC4)cc3)n2)[nH]n1 | 68% |
| COc1ccc2c(c1)c(C1=C(c3c[nH]c4ccccc34)C(=O)NC1=O)cn2CCCN(C)C | 93.5% |
| O=C1Cc2c([nH]c3ccc(Br)cc23)-c2ccccc2N1 | 89.1% |
| Oc1cccc(-c2nc(N3CCOCC3)c3oc4ncccc4c3n2)c1 | 90.3% |
| CCCNC(=O)Nc1ccc(Oc2ncnc3cc(OC)c(OC)cc23)cc1Cl | 99.1% |
| Cc1ccc(S(=O)(=O)/C=C/C#N)cc1 | 101% |
| c1ccc2c(-c3ccncc3)c[nH]c2c1 | 62.3% |
| O=C(c1cc2cc(O)ccc2[nH]1)c1cc2cc(O)ccc2[nH]1 | 34.8% |

Block 3 — read-out: cell-free assay; method: competition with immobilised ligand; tested at: 1 µM
Structure (SMILES): O=C1NC(c2ccccn2)Sc2ccccc21 (stereo not shown)
| target | remaining binding |
| --- | --- |
| GRK7 (Homo sapiens, UniProt Q8WTQ7) | 86% |
| RET (Homo sapiens, UniProt P07949, V804L) | 69% |
| MAST1 (Homo sapiens, UniProt Q9Y2H9) | 91% |
| RET (Homo sapiens, UniProt P07949) | 88% |
| LCK (Homo sapiens, UniProt P06239) | 80% |
| BTK (Homo sapiens, UniProt Q06187) | 74% |
| SIK3 (Homo sapiens, UniProt Q9Y2K2) | 70% |
| Tyrosine-protein kinase ABL1, non-phosphorylated (ABL1, Homo sapiens, UniProt P00519, Q252H) | 75% |
| ACVR1 (Homo sapiens, UniProt Q04771) | 82% |
| TSSK3 (Homo sapiens, UniProt Q96PN8) | 88% |
| MAP3K13 (Homo sapiens, UniProt O43283) | 100% |
| GRK4 (Homo sapiens, UniProt P32298) | 100% |
| Cyclin-dependent kinase 4, with cyclin D1 (CDK4, Homo sapiens, UniProt P11802) | 91% |
| PHKG2 (Homo sapiens, UniProt P15735) | 73% |
| MINK1 (Homo sapiens, UniProt Q8N4C8) | 72% |

Single results of other studies
| Compound | cell line | test | conditions | how to read | measurement | value |
| --- | --- | --- | --- | --- | --- | --- |
| CC(C)C[C@H]1NC(=O)[C@H](N(C)C(=O)[C@@H](CC2CCC2)NC(=O)[C@H]2C[C@H](F)CN2C(=O)C2(C(F)(F)F)CC(F)(F)C2)CCCCNC(=O)C2(CC2)NC(=O)[C@@H](Cc2cc(Cl)ccc2Cl)N(C)C1=O | NCI-H446 | Vi-Cell counting | 200 nM, 6 days | relative to: DMSO | cell count | 1.03 and 0.839 and 1.22 |

For quick reference, copied from above (block 3):
| target | remaining binding |
| --- | --- |
| RET (Homo sapiens, UniProt P07949) | 88% |
| LCK (Homo sapiens, UniProt P06239) | 80% |
| BTK (Homo sapiens, UniProt Q06187) | 74% |
| SIK3 (Homo sapiens, UniProt Q9Y2K2) | 70% |
